{"data": "Assay results gathered from unrelated publications", "medium": "plasma", "note": "± gives the spread as reported."}
{"SMILES": "O=C(Nc1nccs1)C(c1cc(F)ccc1O)N1Cc2ccccc2C1=O (stereo not shown)", "host": "mouse FVB/NRj, female", "route": "oral", "dose": "20 mg/kg", "endpoint": "plasma half-life", "result": "1.36 ± 0.61 h"}
{"SMILES": "O=C(N[C@@H](Cc1coc2ccccc12)B(O)O)[C@@H]1C[C@H]2CC[C@@H]1O2", "host": "mouse, U266B1 xenograft", "route": "oral", "dose": "0.3 to 30 mg/kg single", "endpoint": "plasma exposure", "result": "increased"}
{"SMILES": "CCC1CC2C(C)=CC3C(=O)CCCC3C=CC(C)=CC2C(=O)O1 (stereo not shown)", "host": "ICR mouse male", "route": "intravenous", "dose": "2 mg/kg", "time": "5 min", "endpoint": "plasma concentration", "result": "0.0255 ± 0.0099 µg/mL"}
{"SMILES": "Cc1cc(C)c(-c2[nH]nc(C)c2C)cc1C(=O)N1CC(c2ccc(C#N)cc2)C1", "technique": "mass spectrometry", "host": "mouse, A549 xenograft", "route": "oral", "dose": "60 mg/kg", "time": "6 h after last dose", "endpoint": "plasma concentration", "result": "9.54 µg/mL"}
{"SMILES": "CC(C)(C)NCC(SS(=O)(=O)O)c1ccccc1 (stereo not shown)", "host": "Swiss Webster mouse, female", "route": "oral", "dose": "100 mg/kg", "time": "0.5 to 4.0 h", "endpoint": "plasma peak decrease", "result": "> 50%"}
{"SMILES": "COc1ccc(CCNc2ncnc3sc(C)cc23)cc1OC", "host": "mouse", "route": "intraperitoneal", "dose": "2.6 mg/kg", "time": "within 1 h", "endpoint": "plasma level reduction", "result": "~10 fold"}
{"SMILES": "Cn1ncc2c1N(CCCCNC/C=C/C#N)c1cc(Cl)ccc1CC2.O=C(O)/C=C\\C(=O)O", "host": "mouse", "route": "intravenous", "dose": "5 mg/kg", "endpoint": "plasma clearance", "result": "> 5.4 L/h/kg"}
{"SMILES": "Cn1cnnc1Sc1c2c(c(C#N)c3nc4ccccc4n13)CCCC2", "host": "C57BL/6 mouse", "route": "intravenous", "dose": "0.3 µg/g", "time": "15 min", "endpoint": "plasma concentration", "result": "0.0063 µg/mL"}
{"SMILES": "CONC(=O)[C@H]1[C@@H](O)[C@@]2(O)c3c(cc(OC)nc3OC)O[C@@]2(c2ccc(C#N)cc2)[C@@H]1c1ccccc1", "host": "mouse", "route": "oral", "dose": "5 mg/kg", "endpoint": "plasma half-life", "result": "~10 h"}
{"SMILES": "CCC1C=CC2CCN(C(=O)C3CCC4C=CC5(CCCN5C(=O)C(Cc5ccccc5Cl)NC(C)=O)C(=O)N43)C2C(=O)N1CC(=O)OC (stereo not shown)", "host": "mouse", "route": "subcutaneous", "dose": "100 mg/kg", "time": "24 h", "endpoint": "plasma concentration", "result": "< 1 nM"}
{"note": "A few entries again:"}
{"SMILES": "CCC1CC2C(C)=CC3C(=O)CCCC3C=CC(C)=CC2C(=O)O1 (stereo not shown)", "host": "ICR mouse male", "route": "intravenous", "dose": "2 mg/kg", "time": "5 min", "endpoint": "plasma concentration", "result": "0.0255 ± 0.0099 µg/mL"}
